# Measurements pooled from the literature.
# Lines come from different studies, so protocols differ. Values joined by “and” are separate records of one study, mostly repeats; a detail may differ.
# Organism: Staphylococcus aureus
SMILES,test,test system,setting,how to read,measurement,value
CC[C@H](C)[C@@H]1NC(=O)[C@H](CO)NC(=O)C(C)(CCCCN)NC(=O)[C@@H]2CSSC[C@@H](C(=O)N[C@@H](Cc3ccc(O)cc3)C(N)=O)NC(=O)[C@H](CCCCN)NC(=O)[C@@H]3CSSC[C@H](NC(=O)[C@H](CCCNC(=N)N)NC(=O)C(C)(CC(C)C)NC(=O)[C@H](CC(=O)O)NC(=O)[C@H](CC(=O)O)NC(=O)[C@H](CCC(=O)O)NC(=O)[C@H](CC(N)=O)NC(=O)[C@H](Cc4c[nH]c5ccccc45)NC(=O)C(C)(CC)NC(=O)CNC(=O)[C@H](CC(N)=O)NC(=O)[C@@H](NC(=O)CNC(=O)[C@H](Cc4ccccc4)NC(=O)CN)CSSC[C@H](NC(=O)[C@H](Cc4ccc(O)cc4)NC(=O)CNC(=O)CNC(=O)[C@H](CCCCN)NC(=O)[C@H](Cc4ccc(O)cc4)NC(=O)[C@H]4CCCN4C(=O)[C@@H]4CCCN4C1=O)C(=O)N[C@@H](C)C(=O)N[C@@H](CCCCN)C(=O)N1CCC[C@@H]1C(=O)NCC(=O)N[C@@H](Cc1ccccc1)C(=O)N[C@@H](C(C)C)C(=O)N3)C(=O)N[C@@H](Cc1c[nH]cn1)C(=O)NC(C)(C)C(=O)N[C@@H](Cc1c[nH]cn1)C(=O)N2 (some centres unmarked),,467,"24 h, 37 °C, 99.9% killing",,MBC,16 µM
CC(C)[C@H]1NC(=O)[C@H](Cc2ccccc2)NC(=O)[C@@H](C(C)C)NC(=O)[C@@H](C)NC(=O)[C@H](CO)NC(=O)[C@@H](Cc2c(-c3ccc(-c4ccc5ccccc5c4)cc3)[nH]c3ccccc23)NC(=O)[C@@H](CO)NC1=O,broth dilution,,,,MIC90,> 50 µM
OB(O)c1ccc(C(F)(F)F)s1,,USA300 wild type,1 µM,reference: untreated,growth relative to untreated,98.8% and 102% and 86.9% and 86.3% and 86.6% and 95.2%
CCCNC(=O)[C@H](Cc1ccc(O)cc1)NC(=O)[C@@H]1Cc2ccc(O)c(c2)-c2cc(ccc2O)C[C@@H](NC(=O)[C@H](CC(N)=O)NC(=O)[C@@H](Cc2ccc(O)cc2)NC(=O)[C@@H](CC(C)C)NC)C(=O)N[C@H](c2ccc(O)cc2)C(=O)N1,bacterial growth,,,,IC50,> 40 µM
COc1ccc(CC2[NH2+]CCc3cc(OC)c(OC)cc32)cc1OC.[Cl][Fe-]([Cl])([Cl])[Cl] (centres unmarked),,,"24 h, 37 °C",,MIC50,647 µM
CC(C)[C@H]1NC(=O)[C@H](Cc2ccccc2)NC(=O)[C@@H](C(C)C)NC(=O)[C@@H](C)NC(=O)[C@H](CO)NC(=O)[C@@H](Cc2c(-c3ccc(-c4ccc(-c5ccccc5)cc4)cc3)[nH]c3ccccc23)NC(=O)[C@@H](C)NC1=O,broth dilution,,,,MIC90,> 50 µM
CCCNC(=O)[C@@H]1Cc2ccc(O)c(c2)-c2cc(ccc2O)C[C@H](NC(=O)[C@H](NC(=O)[C@H](NC(=O)[C@H](CC(N)=O)NC(=O)[C@@H](Cc2ccc(O)cc2)NC(=O)[C@@H](CC(C)C)NC)c2ccccc2)c2ccc(O)cc2)C(=O)N1,bacterial growth,,,,IC50,> 40 µM
CC(C)C[C@H](NC(=O)[C@H](CCN)NC(=O)[C@H](CCN)NC(=O)[C@@H](Cc1ccccc1)NC(=O)[C@H](CC(C)C)NC(=O)[C@H](CCN)NC(=O)[C@H](CCN)NC(=O)[C@@H](CCN)NC(=O)[C@@H](N)CS)C(N)=O,,ATCC 6538,"24 h, 37 °C",,MBC,128 µM
COc1cc(OC)cc(B(O)O)c1,crystal violet,USA300 wild type,100 µM,reference: wild type untreated,biofilm formation,31.1% and 30.3% and 27.4%
CCc1ccn2c(C(=O)NCc3ccccc3)c(C)nc2c1,microbial growth,SG511,"2 mM, 20 h",,inhibition zone,0 mm
CC[C@H](C)[C@@H]1NC(=O)[C@@H](CCCNC(=N)N)NC(=O)[C@@H](NC(=O)[C@@H](CC(C)C)NC(=O)[C@H](C)NC(=O)[C@H](C)NC(=O)[C@@H]2CCCN2C(=O)[C@@H](CC(C)C)NC(=O)[C@@H](NC(=O)[C@@H](CCCNC(=N)N)NC(=O)[C@@H](CC(C)C)NC(=O)[C@@H](CC(C)C)NC(=O)[C@@H](NC(=O)[C@@H](CCCNC(=N)N)NC(=O)[C@@H](CC(C)C)NC(=O)[C@@H](NC(=O)[C@@H](NC(=O)CNC(=O)[C@@H](CC(C)C)NC(=O)[C@@H](N)Cc2ccccc2)[C@@H](C)O)C(C)C)C(C)C)C(C)C)CSSC[C@@H](C(=O)O)NC(=O)[C@@H](CCCNC(=N)N)NC(=O)[C@@H](CCCNC(=N)N)NC(=O)[C@H](Cc2ccccc2)NC1=O,,"MRSA NCTC 12493, Galleria mellonella larvae","16 mg/kg, titanium implant biofilm infection",,survival rate,70%
CC[C@H](C)[C@H](NC(=O)[C@H](CC(C)C)NC(=O)[C@H](CC(=O)O)NC(=O)[C@H](CCCNC(=N)N)NC(=O)[C@H](Cc1c[nH]c2ccccc12)NC(=O)[C@@H](N)CC(C)C)C(=O)N[C@@H](CS)C(=O)N[C@@H](CC(C)C)C(=O)N[C@@H](CS)C(=O)N[C@@H](CCCNC(=N)N)C(=O)N[C@@H](CC(N)=O)C(=O)N[C@@H](CCCNC(=N)N)C(=O)N[C@@H](CCCNC(=N)N)C(=O)N[C@@H](CS)C(=O)N[C@@H](CC(N)=O)C(=O)N[C@@H](CCCNC(=N)N)C(=O)NCC(=O)N[C@@H](CCC(N)=O)C(=O)N[C@@H](CC(C)C)C(=O)N[C@@H](Cc1ccccc1)C(=O)N1CCC[C@H]1C(=O)NCC(=O)N[C@@H](Cc1c[nH]c2ccccc12)C(=O)N[C@@H](CS)C(=O)N1CCC[C@H]1C(=O)NCC(=O)N[C@@H](Cc1c[nH]c2ccccc12)C(=O)N[C@@H](Cc1c[nH]c2ccccc12)C(=O)N[C@@H](CC(C)C)C(=O)N[C@@H](CCCNC(=N)N)C(=O)N[C@@H](CS)C(=O)N[C@@H](CS)C(=O)N[C@@H](CCCNC(=N)N)C(=O)N[C@@H](CCCNC(=N)N)C(N)=O,colony count,,"30 µg/mL, 2 h, 37 °C, pretreated pepsin gastric fluid, together with: pepsin 1 mg/mL",,bactericidal rate,~95%
CC(C)C[C@H](NC(=O)[C@H](CC(C)C)NC(=O)[C@H](CCCCN)NC(=O)[C@H](Cc1ccccc1)NC(=O)[C@@H](NC(=O)[C@H](CCCNC(=N)N)NC(=O)[C@@H](N)CCCCN)C(C)C)C(=O)N[C@@H](CCCCN)C(=O)N[C@@H](CCCNC(=N)N)C(=O)N[C@@H](Cc1ccc(O)cc1)C(=O)N[C@@H](Cc1c[nH]c2ccccc12)C(=O)N[C@@H](CCCNC(=N)N)C(=O)N[C@@H](CCC(N)=O)C(=O)N[C@@H](CC(C)C)C(=O)N[C@@H](CCCCN)C(=O)N[C@@H](CCCCN)C(=O)N1CCC[C@H]1C(=O)N[C@H](C(=O)N[C@@H](CCCNC(=N)N)C(=O)NCCOCCOCC(=O)O)C(C)C,Congo red staining,ATCC 25295,"4 h, 37 °C",,minimum concentration for visible aggregation,≥ 20 µM
N=C(N)NCCC[C@H](NC(=O)[C@H](Cc1c[nH]c2ccccc12)NC(=O)[C@H](CCCNC(=N)N)NC(=O)[C@H](CCCNC(=N)N)NC(=O)[C@@H]1CCCN1C(=O)[C@H](CCCCN)NC(=O)[C@@H](N)CCCNC(=N)N)C(=O)N[C@@H](Cc1c[nH]c2ccccc12)C(=O)N[C@@H](Cc1c[nH]c2ccccc12)C(=O)N1CCC[C@H]1C(=O)N[C@@H](CCCCN)C(=O)N[C@@H](CCCNC(=N)N)C(=O)N1CCC[C@H]1C(=O)O,,"09057, female BALB/c mice, sepsis, spleen","intraperitoneal, 20 mg/kg",,log bacterial load,4.93 log(CFU/g) and 5.38 log(CFU/g) and 5.77 log(CFU/g) and 5.78 log(CFU/g) and 5.79 log(CFU/g) and 4.75 log(CFU/g)
CC[C@H](C)[C@H](NC(=O)[C@H](CCCCN)NC(=O)[C@H](CCCCN)NC(=O)[C@H](Cc1ccccc1)NC(=O)[C@H](Cc1ccccc1)NC(=O)[C@H](CCCCN)NC(=O)[C@H](CCCCN)NC(=O)[C@H](Cc1ccccc1)NC(=O)[C@H](CCCNC(=N)N)NC(=O)[C@@H](N)CCCCN)C(=O)N[C@@H](CCCCN)C(=O)N[C@@H](CCCCN)C(=O)N[C@@H](CO)C(=O)N[C@H](C(=O)N[C@@H](CCCCN)C(=O)N[C@@H](CCCCN)C(=O)N[C@@H](CCCNC(=N)N)C(=O)N[C@H](C(=O)N[C@@H](CCCCN)C(=O)N[C@@H](CCCCN)C(=O)N[C@@H](CC(C)C)C(=O)N[C@@H](Cc1ccccc1)C(=O)N[C@@H](CCCCN)C(=O)N[C@@H](CCCCN)C(=O)N1CCC[C@H]1C(=O)N[C@@H](CCCNC(=N)N)C(=O)N[C@H](C(=O)N[C@H](C(=O)N1CCC[C@H]1C(=O)N[C@H](C(=O)N[C@@H](CO)C(=O)N[C@H](C(=O)N1CCC[C@H]1C(=O)N[C@@H](Cc1ccccc1)C(=O)O)[C@@H](C)CC)[C@@H](C)CC)[C@@H](C)CC)C(C)C)C(C)C)C(C)C,,ATCC 29213,"20 h, 37 °C",,MBC,16 µg/mL
CC1CCN(C(=O)c2cccc(NC(=O)Nc3ccc(Cl)cc3)c2)CC1,checkerboard,"CRB, PBP4 overexpressor","25 µM, together with: ceftobiprole",reference: ceftobiprole alone over combination,MIC fold reduction,16 and > 8
CN[C@H](CC(C)C)C(=O)N[C@H]1C(=O)N[C@@H](CC(N)=O)C(=O)N[C@H]2C(=N)N[C@H]3C(=O)N[C@H](C(=O)N[C@H](C(=O)NCCCNC(=N)N)c4cc(O)cc(O)c4-c4cc3ccc4O)[C@H](O)c3ccc(c(Cl)c3)Oc3cc2cc(c3O[C@@H]2O[C@H](CO)[C@@H](O)[C@H](O)[C@H]2O[C@H]2C[C@](C)(NCc3ccc(-c4ccc(Cl)cc4)cc3)[C@H](O)[C@H](C)O2)Oc2ccc(cc2Cl)[C@H]1O,,"VRS2 VanA VRSA, mouse neutropenic thigh infection, thigh","subcutaneous, 50 or 100 mg/kg once at 2 h, 26 h",,reduction of bacterial count,≥ 2 log10 CFU/g
Cc1ccc(-c2nc3ccc(C)cn3c2CC(=O)NCc2ccc(N(C)C)cc2)cc1,microbial growth,SG511,"2 mM, 20 h",,inhibition zone,15 mm
CC[C@H](C)[C@@H]1NC(=O)[C@H](CO)NC(=O)[C@H](CCCCN)NC(=O)[C@@H]2CSSC[C@@H](C(=O)N[C@@H](Cc3ccc(O)cc3)C(N)=O)NC(=O)[C@H](CCCCN)NC(=O)[C@@H]3CSSC[C@H](NC(=O)[C@H](CCCNC(=N)N)NC(=O)[C@H](CC(C)C)NC(=O)[C@H](CC(=O)O)NC(=O)[C@H](CC(=O)O)NC(=O)[C@H](CCC(=O)O)NC(=O)[C@H](CC(N)=O)NC(=O)[C@H](Cc4c[nH]c5ccccc45)NC(=O)C(C)(CC)NC(=O)CNC(=O)[C@H](CC(N)=O)NC(=O)[C@@H](NC(=O)CNC(=O)[C@H](Cc4ccccc4)NC(=O)CN)CSSC[C@H](NC(=O)[C@H](Cc4ccc(O)cc4)NC(=O)CNC(=O)CNC(=O)[C@H](CCCCN)NC(=O)[C@H](Cc4ccc(O)cc4)NC(=O)[C@H]4CCCN4C(=O)[C@@H]4CCCN4C1=O)C(=O)N[C@@H](C)C(=O)N[C@@H](CCCCN)C(=O)N1CCC[C@@H]1C(=O)NCC(=O)N[C@@H](Cc1ccccc1)C(=O)N[C@@H](C(C)C)C(=O)N3)C(=O)N[C@@H](Cc1c[nH]cn1)C(=O)N[C@@H](CC(N)=O)C(=O)N[C@@H](Cc1c[nH]cn1)C(=O)N2 (some centres unmarked),,USA300 MRSA,24 h,,MBC,4 µM
C[C@@H](N)[C@H](O)CCCCCCCC(=O)CCCCCCCCCCCCCC[C@@H](O[C@@H]1O[C@H](CO)[C@@H](O)[C@H](O)[C@H]1O)[C@@H](N)CO,"microbial growth, resazurin",ATCC12600,50 µM,,inhibition,98%

# A few entries again:
SMILES,test,test system,setting,how to read,measurement,value
CC[C@H](C)[C@H](NC(=O)[C@H](CC(C)C)NC(=O)[C@H](CC(=O)O)NC(=O)[C@H](CCCNC(=N)N)NC(=O)[C@H](Cc1c[nH]c2ccccc12)NC(=O)[C@@H](N)CC(C)C)C(=O)N[C@@H](CS)C(=O)N[C@@H](CC(C)C)C(=O)N[C@@H](CS)C(=O)N[C@@H](CCCNC(=N)N)C(=O)N[C@@H](CC(N)=O)C(=O)N[C@@H](CCCNC(=N)N)C(=O)N[C@@H](CCCNC(=N)N)C(=O)N[C@@H](CS)C(=O)N[C@@H](CC(N)=O)C(=O)N[C@@H](CCCNC(=N)N)C(=O)NCC(=O)N[C@@H](CCC(N)=O)C(=O)N[C@@H](CC(C)C)C(=O)N[C@@H](Cc1ccccc1)C(=O)N1CCC[C@H]1C(=O)NCC(=O)N[C@@H](Cc1c[nH]c2ccccc12)C(=O)N[C@@H](CS)C(=O)N1CCC[C@H]1C(=O)NCC(=O)N[C@@H](Cc1c[nH]c2ccccc12)C(=O)N[C@@H](Cc1c[nH]c2ccccc12)C(=O)N[C@@H](CC(C)C)C(=O)N[C@@H](CCCNC(=N)N)C(=O)N[C@@H](CS)C(=O)N[C@@H](CS)C(=O)N[C@@H](CCCNC(=N)N)C(=O)N[C@@H](CCCNC(=N)N)C(N)=O,colony count,,"30 µg/mL, 2 h, 37 °C, pretreated pepsin gastric fluid, together with: pepsin 1 mg/mL",,bactericidal rate,~95%
